Measured values pooled from the literature.
Protocols differ between the studies behind these lines. “And” joins repeats or separate records; there may be more than shown. ± gives the spread as reported.
GUK1: GUK1 (Homo sapiens, UniProt Q16774)
UniProt Q16774, sequence (whole entry, looked up): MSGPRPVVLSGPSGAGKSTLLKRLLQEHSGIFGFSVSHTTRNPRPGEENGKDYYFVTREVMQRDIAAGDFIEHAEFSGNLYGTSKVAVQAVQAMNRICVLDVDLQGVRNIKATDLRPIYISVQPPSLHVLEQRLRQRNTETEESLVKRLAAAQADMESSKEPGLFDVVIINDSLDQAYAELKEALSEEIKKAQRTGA
TOP2A: DNA topoisomerase 2-alpha (TOP2A, Homo sapiens, UniProt P11388)
UniProt P11388, sequence (whole entry, looked up): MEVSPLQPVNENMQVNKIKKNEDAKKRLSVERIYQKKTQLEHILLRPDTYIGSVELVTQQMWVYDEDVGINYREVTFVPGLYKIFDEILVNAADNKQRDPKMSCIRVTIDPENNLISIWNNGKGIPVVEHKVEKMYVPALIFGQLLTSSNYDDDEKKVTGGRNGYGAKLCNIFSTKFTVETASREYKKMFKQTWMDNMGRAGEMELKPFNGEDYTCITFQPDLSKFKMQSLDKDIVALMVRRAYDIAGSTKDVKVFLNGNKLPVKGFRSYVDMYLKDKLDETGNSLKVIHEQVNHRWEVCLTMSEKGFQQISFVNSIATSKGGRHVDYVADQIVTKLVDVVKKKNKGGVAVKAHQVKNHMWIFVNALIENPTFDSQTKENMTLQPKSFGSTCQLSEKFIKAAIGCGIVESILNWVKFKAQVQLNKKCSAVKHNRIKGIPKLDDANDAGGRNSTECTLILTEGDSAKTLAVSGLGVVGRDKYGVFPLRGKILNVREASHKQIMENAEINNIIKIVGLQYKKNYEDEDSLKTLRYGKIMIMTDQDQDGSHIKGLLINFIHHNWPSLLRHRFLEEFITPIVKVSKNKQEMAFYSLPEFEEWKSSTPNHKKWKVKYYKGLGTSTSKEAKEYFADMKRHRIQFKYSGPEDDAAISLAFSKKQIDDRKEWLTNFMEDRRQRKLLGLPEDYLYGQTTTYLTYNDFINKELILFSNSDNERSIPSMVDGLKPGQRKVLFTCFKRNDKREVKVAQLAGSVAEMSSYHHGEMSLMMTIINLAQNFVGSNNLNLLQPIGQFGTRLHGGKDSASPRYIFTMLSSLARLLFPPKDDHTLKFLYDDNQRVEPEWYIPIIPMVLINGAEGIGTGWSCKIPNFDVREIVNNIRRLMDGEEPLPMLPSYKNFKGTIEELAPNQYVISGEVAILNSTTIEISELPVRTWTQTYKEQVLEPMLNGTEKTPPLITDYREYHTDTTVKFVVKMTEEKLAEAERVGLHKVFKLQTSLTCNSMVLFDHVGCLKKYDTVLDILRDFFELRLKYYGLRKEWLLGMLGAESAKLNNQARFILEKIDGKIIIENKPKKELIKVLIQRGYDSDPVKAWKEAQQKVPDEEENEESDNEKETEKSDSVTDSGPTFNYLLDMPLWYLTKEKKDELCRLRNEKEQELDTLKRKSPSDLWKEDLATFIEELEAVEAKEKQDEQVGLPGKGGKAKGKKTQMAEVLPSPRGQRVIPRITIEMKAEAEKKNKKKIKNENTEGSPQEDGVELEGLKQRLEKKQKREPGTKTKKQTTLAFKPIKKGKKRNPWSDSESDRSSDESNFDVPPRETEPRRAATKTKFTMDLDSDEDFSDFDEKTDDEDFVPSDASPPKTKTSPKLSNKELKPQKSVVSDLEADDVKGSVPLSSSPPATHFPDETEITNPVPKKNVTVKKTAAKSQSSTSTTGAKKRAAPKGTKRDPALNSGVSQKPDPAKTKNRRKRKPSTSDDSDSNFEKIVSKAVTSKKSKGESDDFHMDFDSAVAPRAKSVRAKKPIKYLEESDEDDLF
IDE: Insulin-degrading enzyme (IDE, Homo sapiens, UniProt P14735)
BEST2: Bestrophin-2a (BEST2, Homo sapiens, UniProt Q8NFU1)
UniProt Q8NFU1, sequence (whole entry, looked up): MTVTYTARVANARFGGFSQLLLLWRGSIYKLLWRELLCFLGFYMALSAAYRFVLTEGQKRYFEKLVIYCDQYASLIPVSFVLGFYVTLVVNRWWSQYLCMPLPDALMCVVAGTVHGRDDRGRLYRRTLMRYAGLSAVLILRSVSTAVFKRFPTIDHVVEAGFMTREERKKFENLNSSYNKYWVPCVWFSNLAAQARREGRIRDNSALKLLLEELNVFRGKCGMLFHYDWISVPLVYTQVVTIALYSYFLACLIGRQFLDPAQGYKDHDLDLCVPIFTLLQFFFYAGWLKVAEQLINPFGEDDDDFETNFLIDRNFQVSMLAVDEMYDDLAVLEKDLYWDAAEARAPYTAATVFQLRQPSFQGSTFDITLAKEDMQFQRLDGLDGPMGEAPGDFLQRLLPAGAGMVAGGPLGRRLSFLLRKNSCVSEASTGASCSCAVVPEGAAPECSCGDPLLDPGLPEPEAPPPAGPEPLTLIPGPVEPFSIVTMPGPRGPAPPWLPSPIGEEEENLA
ATP2A2: ATP2A2 (Sus scrofa, UniProt P11607)
UniProt P11607, sequence (whole entry, looked up): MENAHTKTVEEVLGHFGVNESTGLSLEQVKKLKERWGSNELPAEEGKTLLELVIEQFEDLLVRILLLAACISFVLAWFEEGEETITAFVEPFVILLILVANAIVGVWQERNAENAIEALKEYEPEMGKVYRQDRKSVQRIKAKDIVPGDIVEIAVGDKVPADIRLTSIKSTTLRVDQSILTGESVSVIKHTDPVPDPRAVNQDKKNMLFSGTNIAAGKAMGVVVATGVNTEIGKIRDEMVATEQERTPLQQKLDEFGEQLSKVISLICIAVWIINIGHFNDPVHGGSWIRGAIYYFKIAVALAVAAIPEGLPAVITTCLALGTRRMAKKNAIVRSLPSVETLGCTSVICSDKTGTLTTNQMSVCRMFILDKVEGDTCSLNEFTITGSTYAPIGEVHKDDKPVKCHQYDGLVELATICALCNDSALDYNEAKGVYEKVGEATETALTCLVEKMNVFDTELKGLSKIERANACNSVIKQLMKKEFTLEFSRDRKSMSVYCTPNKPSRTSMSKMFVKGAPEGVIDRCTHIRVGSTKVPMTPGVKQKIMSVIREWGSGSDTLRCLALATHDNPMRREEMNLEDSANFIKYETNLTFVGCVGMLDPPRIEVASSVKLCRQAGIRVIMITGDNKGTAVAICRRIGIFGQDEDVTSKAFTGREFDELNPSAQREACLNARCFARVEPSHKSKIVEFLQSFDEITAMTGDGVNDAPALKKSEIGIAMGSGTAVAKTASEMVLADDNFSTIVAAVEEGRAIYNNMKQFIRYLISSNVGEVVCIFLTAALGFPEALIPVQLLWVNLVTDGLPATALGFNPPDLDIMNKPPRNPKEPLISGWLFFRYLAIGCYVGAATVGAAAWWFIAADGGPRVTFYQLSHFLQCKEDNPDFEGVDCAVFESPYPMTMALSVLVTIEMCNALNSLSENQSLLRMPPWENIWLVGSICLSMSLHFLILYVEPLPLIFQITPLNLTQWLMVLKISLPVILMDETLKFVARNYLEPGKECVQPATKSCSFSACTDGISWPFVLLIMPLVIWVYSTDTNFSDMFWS
PKN1: Serine/threonine-protein kinase N1 (PKN1, Homo sapiens, UniProt Q16512)
UniProt Q16512, sequence (whole entry, looked up): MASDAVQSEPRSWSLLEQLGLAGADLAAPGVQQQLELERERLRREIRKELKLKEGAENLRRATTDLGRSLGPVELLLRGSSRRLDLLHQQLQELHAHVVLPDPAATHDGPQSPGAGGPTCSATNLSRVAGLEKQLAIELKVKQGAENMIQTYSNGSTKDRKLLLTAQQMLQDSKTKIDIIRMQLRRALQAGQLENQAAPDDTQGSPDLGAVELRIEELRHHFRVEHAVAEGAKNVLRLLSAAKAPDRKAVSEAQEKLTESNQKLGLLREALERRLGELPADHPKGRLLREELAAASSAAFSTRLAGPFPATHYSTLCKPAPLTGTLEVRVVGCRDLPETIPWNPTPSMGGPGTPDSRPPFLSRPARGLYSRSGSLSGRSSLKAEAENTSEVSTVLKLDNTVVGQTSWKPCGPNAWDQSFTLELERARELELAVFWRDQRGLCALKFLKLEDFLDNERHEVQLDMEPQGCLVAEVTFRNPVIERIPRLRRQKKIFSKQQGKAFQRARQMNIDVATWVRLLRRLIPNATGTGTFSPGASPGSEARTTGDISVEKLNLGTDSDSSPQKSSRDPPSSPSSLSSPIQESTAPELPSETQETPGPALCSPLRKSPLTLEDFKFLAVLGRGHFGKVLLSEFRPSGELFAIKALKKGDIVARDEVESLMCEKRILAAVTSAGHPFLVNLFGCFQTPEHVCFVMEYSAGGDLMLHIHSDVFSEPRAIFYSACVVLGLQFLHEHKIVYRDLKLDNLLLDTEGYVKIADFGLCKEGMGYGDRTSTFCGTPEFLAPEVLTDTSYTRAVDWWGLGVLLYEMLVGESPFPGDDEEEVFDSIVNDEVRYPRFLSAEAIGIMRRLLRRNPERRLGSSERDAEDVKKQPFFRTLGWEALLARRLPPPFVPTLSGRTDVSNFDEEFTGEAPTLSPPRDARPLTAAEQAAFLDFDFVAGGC
T1: G-quadruplex RNA (Caenorhabditis elegans); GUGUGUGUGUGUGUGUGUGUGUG
UniProt Q96RI1, sequence (whole entry, looked up): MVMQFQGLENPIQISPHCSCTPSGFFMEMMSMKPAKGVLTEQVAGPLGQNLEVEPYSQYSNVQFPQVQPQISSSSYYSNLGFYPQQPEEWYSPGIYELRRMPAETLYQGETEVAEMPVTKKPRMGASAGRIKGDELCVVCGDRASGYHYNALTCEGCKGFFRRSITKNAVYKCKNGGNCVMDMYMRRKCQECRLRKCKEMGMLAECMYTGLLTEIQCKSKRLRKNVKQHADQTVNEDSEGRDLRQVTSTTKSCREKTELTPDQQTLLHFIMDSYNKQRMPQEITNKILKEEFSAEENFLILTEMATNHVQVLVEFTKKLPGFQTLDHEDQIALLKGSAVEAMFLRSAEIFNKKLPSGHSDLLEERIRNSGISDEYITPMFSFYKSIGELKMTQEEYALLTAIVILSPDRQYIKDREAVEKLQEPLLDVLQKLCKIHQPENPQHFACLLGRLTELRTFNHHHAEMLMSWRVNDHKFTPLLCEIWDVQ
UniProt P28074, sequence (whole entry, looked up): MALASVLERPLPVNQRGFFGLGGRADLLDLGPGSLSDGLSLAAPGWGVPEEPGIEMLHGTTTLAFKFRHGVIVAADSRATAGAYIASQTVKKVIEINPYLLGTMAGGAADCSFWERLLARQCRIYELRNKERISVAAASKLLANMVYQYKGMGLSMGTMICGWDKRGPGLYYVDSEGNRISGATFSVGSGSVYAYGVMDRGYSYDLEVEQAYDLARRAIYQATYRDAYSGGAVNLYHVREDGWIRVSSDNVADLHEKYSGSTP

Structure (SMILES) | target or system | assay | test system | setting | scale | endpoint | result
Nc1nc2c(ncn2[C@@H]2O[C@H](COP(=O)(O)O)[C@@H](O)[C@H]2O)c(=O)[nH]1 | GUK1 | substrate, NADH-coupled | – | – | – | kcat | 44.5 s⁻¹
NCCS(=O)(=O)O | SLC6A6 (Homo sapiens, UniProt P31641, Y138A) | binding, microscale thermophoresis | – | 125 µM, room temperature, together with: 50 nM labelled protein | higher = more binding | normalised MST signal | -0.0214
O=c1nc(SCc2cc(F)cc(C(F)(F)F)c2)nc(SCc2ccc3sccc3c2)[nH]1 | TOP2A | DNA cleavage | – | 15.6 µM, together with: etoposide 50 µM | – | linear DNA | 10.4%
CC(C)NC(=O)N1CCCCN2[C@@H](CO)[C@H](c3ccc(C#Cc4ccccc4F)cc3)[C@@H]2C1 | IDE | enzyme activity, inhibitor, fluorogenic kinetic | – | together with: Mca-RPPGFSAFK(Dnp)-OH substrate | – | EC50 | 1200 nM
C[C@@H]1C[C@H](Nc2ccccc2)c2cc(F)ccc2N1C(=O)c1cncnc1 | Ecdysone receptor (Aedes albopictus, UniProt Q9U3Y4) | ligand binding, inhibitor | intact cells | together with: [3H]ponasterone A | direction not given | pIC50 Z-score | -1.25
O=C1Nc2ccc(I)cc2/C1=C/c1cc(Br)c(O)c(Br)c1 | TGM2 (Homo sapiens, UniProt P21980) | enzyme activity, inhibitor | – | together with: Triton X-100 0.02% | – | potency | decreased
Cc1ccc(C(=O)Nc2ccc3ccccc3c2)o1 | ATP-sensitive inward rectifier potassium channel 1 (Homo sapiens, UniProt P48048) | ion current, whole-cell patch-clamp | – | 10 µM, hKir1.1 | – | inhibition | 3.38%
O=C(O)c1ccc(O)cc1 | BEST2 | whole-cell patch clamp | HEK293 transiently expressing channel | concentration not given, membrane potential 20 mV | – | current density | 30.2 pA/pF and 38.6 pA/pF and 42.3 pA/pF and 52.5 pA/pF and 23.5 pA/pF and 20.7 pA/pF and 39.5 pA/pF
c1ccc(CCCCCOCCc2ccc3c(c2)CCCN3)cc1 | ATP2A2 | ATPase Vmax increase, activator | pig microsomes | 0.1 to 50 µM | reference: vehicle | Emax | ~40%
COc1cc(F)ccc1-c1ncnc(Nc2cccc(C[S@](C)(=N)=O)c2)n1 | PIM1 (Homo sapiens, UniProt P11309) | kinase activity | – | 10 µM, together with: 10 µM ATP | – | remaining activity | 103%
CC(=O)/N=c1/sc(S(N)(=O)=O)nn1C | CA4 (Homo sapiens, UniProt P22748) | ITC | – | concentration not given, 25 °C | – | intrinsic binding TΔS | 3.11 kcal/mol
[2H]c1cc(C)c(NC(=O)c2cnc(Nc3cc(N4CCCCC4)nc(C)n3)s2)c(Cl)c1 | RET (Homo sapiens, UniProt P07949) | – | – | 0.01 µM | – | inhibition | < 30%
CCOc1ccc(NC(=O)O[C@@H](Cn2nc(C(C)C)cc2C(C)C)C(C)C)cc1 | Neuronal acetylcholine receptor; alpha4/beta2, (α4)2(β2)3 stoichiometry (Homo sapiens, UniProt P17787+P43681) | two-electrode voltage clamp | Xenopus oocytes | 1 µM, high-sensitivity stoichiometry | – | increase in ACh efficacy | ~10 fold
[Cl-].[Na+] | GUK1 | enzyme activity, NADH-coupled | – | 7.5 mM | – | reaction velocity | -0.00247 µM/s and 0.0072 µM/s and 0.0165 µM/s
O=c1nc(SCc2cc(F)cc(C(F)(F)F)c2)nc(SCc2nc3ccccc3[nH]2)[nH]1 | TOP2A | decatenation | – | 7.8 µM, replicate 2 | – | decatenated DNA | 100%
Cc1nc(NC(=O)N2CCC[C@H]2C(N)=O)sc1-c1ccnc(C(C)(C)C(F)(F)F)c1 | PI4KB (Homo sapiens, UniProt Q9UBF8) | KINOMEscan | – | 10 µM | – | remaining binding | 1.7%
O=C(O)[C@@H]1CCCN1c1ncnc2[nH]cnc12 (racemic) | Histone-lysine N-methyltransferase SETDB1, triple tudor domain (SETDB1, Homo sapiens, UniProt Q15047) | binding, affinity selection mass spectrometry | – | – | reference: other proteins in batch | fold enrichment | 0.997
CCC(=O)NS(=O)(=O)c1ccc(-c2c(-c3ccccc3)noc2C)cc1 | Bile acid receptor (NR1H4, Homo sapiens, UniProt Q96RI1) | reporter gene, Gal4 hybrid reporter | – | 50 µM | reference: vehicle | activation | 1.35 fold

Structure (SMILES) | target or system | assay | test system | setting | scale | endpoint | result
COc1cc2c(NC3CCN(C)CC3)nc(N3CCCN(C)CC3)nc2cc1OCCOCCN(C)C | HBL-1 | – | – | 0.1 µM, 120 h | – | viability | 132%
O=c1nc(SCc2cc(F)cc(C(F)(F)F)c2)nc(SCc2csc3ccc(Cl)cc23)[nH]1 | TOP2A | decatenation | – | 1.95 µM, replicate 2 | – | decatenated DNA | 38.5%
O=c1[nH]c(=O)c2nc(O)c(O)nc2[nH]1 | isomerase LA1_0151/LA1_0152 (Cupriavidus sp. LA-1) | substrate | – | pH 7.5, 30 °C | – | Km | 116 ± 3 µM
N[C@@H](CCO)C(=O)O | Uncharacterized protein (Pelagibacter ubique, UniProt Q4FM26) | differential scanning fluorimetry | Candidatus Pelagibacter ubique | in-house screen | – | thermal shift | 5.02 °C and 2.62 °C
C=C(NC(=O)C(=C)NC(=O)c1csc(C2=N[C@@H]3c4csc(n4)[C@H]4NC(=O)c5csc(n5)[C@H]([C@](C)(O)[C@@H](C)O)NC(=O)[C@H]5CSC(=N5)/C(=C/C)NC(=O)[C@H]([C@@H](C)O)NC(=O)c5csc(n5)[C@]3(CC2)NC(=O)[C@H](C)NC(=O)C(=C)NC(=O)[C@H](C)NC(=O)[C@H]([C@@H](C)CC)N[C@@H]2C=Cc3c([C@H](C)O)cc(nc3[C@H]2O)C(=O)O[C@@H]4C)n1)C(N)=O | PSMB5 (Homo sapiens, UniProt P28074) | chymotrypsin-like activity, inhibitor | purified 20S proteasome | 20 µM, 1 h, 37 °C | – | activity decrease | > 70%
Nc1nc(N)c2nc(CNc3cccc4ccccc34)cnc2n1 | Pteridine reductase 1 (Leishmania major, UniProt Q01782) | – | – | hDHFR weight 10 | reference: LmPTR1, LmDHFR over hDHFR, 1.0 selective, 0.0 non-selective | partition index | 0.98
CN1CCN(Cc2ccc(-c3cnc4[nH]cc(-c5ccc6[nH]ccc6c5)c4c3)cc2)CC1 | PKN1 | inhibitor | – | – | – | Hill slope | -1.03
O=c1nc(SCc2cc(F)cc(C(F)(F)F)c2)nc(SCc2ccc3nc(Cl)ccc3c2)[nH]1 | TOP2A | decatenation | – | 15.6 µM, replicate 2 | – | decatenated DNA | 21.5%
O=C(O)C1=CCNCC1 | BEST2 | whole-cell patch clamp | HEK293 transiently expressing channel | concentration not given, membrane potential -80 mV | – | current density | -141 pA/pF and -400 pA/pF and -159 pA/pF and -186 pA/pF and -203 pA/pF
Nc1ncnc2c1ncn2[C@@H]1O[C@H](CSCC[C@H](N)C(=O)O)[C@@H](O)[C@H]1O | O-methyltransferase (Sorghum bicolor, UniProt A0A1B6PFV1) | biolayer interferometry | – | together with: saturating RSV | – | cooperativity factor σ | 6.44
CCCCCCCS(=O)(=O)CCc1ccc2[nH]cnc2c1 | ATP2A2 | – | pig microsomes | concentration not given | – | ATPase activity | no effect
COCCOc1ccc2c(c1)ncn2-c1ccc2cccc(N3CCC(N)CC3)c2n1 | PKN1 | inhibitor | – | – | – | Hill slope | -1.07
Cc1nc(CSc2nc(SCc3cc(F)cc(C(F)(F)F)c3)nc(=O)[nH]2)cs1 | TOP2A | decatenation | – | 125 µM, replicate 1 | – | decatenated DNA | 0%
C[C@H](Nc1nc(N[C@H](C)C(F)(F)F)nc(-c2cccc(Cl)n2)n1)C(F)(F)F | IDH1 (Homo sapiens, UniProt O75874, R132H) | enzyme activity | – | heterodimer | – | maximal inhibition | 90%
COc1cc2c(NC3CCN(C(C)C)CC3)nc(N3CCC(F)(F)CC3)nc2cc1OCCCN1CCCC1 | HBL-1 | – | – | 1 µM, 120 h | – | viability | 97.5%
Cc1cccc(-c2ccc([C@@H]3[C@@H](CO)N4C(=O)CCCCN(S(=O)(=O)c5ccccc5C(F)(F)F)C[C@@H]34)cc2)c1C | IDE | enzyme activity, inhibitor, fluorogenic peptide cleavage | – | partial inhibition curves, together with: Mca-RPPGFSAFK(Dnp)-OH | – | EC50 | 100 nM
O=c1cc(-c2ccc(OS(=O)(=O)O)cc2)oc2cc(OS(=O)(=O)O)cc(OCc3cccc(COc4cc(OS(=O)(=O)O)cc5oc(-c6ccc(OS(=O)(=O)O)cc6)cc(=O)c45)n3)c12 | Neutrophil elastase (ELANE, Homo sapiens, UniProt P08246) | – | – | 750 nM, together with: chromogenic substrate | – | Km | 1220 ± 117 µM
CCc1c(C)c2cc3nc(cc4nc(cc5c(CC)c(C)c(cc1[nH]2)n5C)C(C)=C4CCC(=O)O)C(CCC(=O)O)=C3C | T1, G-quadruplex RNA (Caenorhabditis elegans) | UV-vis titration | – | – | – | Kd | 1000 nM
